Measurements gathered from unrelated publications.
Values joined by “and” are separate records of one study, mostly repeats; a detail may differ. ± gives the spread as reported.
UniProt Q9Y2K6, sequence (whole entry, looked up): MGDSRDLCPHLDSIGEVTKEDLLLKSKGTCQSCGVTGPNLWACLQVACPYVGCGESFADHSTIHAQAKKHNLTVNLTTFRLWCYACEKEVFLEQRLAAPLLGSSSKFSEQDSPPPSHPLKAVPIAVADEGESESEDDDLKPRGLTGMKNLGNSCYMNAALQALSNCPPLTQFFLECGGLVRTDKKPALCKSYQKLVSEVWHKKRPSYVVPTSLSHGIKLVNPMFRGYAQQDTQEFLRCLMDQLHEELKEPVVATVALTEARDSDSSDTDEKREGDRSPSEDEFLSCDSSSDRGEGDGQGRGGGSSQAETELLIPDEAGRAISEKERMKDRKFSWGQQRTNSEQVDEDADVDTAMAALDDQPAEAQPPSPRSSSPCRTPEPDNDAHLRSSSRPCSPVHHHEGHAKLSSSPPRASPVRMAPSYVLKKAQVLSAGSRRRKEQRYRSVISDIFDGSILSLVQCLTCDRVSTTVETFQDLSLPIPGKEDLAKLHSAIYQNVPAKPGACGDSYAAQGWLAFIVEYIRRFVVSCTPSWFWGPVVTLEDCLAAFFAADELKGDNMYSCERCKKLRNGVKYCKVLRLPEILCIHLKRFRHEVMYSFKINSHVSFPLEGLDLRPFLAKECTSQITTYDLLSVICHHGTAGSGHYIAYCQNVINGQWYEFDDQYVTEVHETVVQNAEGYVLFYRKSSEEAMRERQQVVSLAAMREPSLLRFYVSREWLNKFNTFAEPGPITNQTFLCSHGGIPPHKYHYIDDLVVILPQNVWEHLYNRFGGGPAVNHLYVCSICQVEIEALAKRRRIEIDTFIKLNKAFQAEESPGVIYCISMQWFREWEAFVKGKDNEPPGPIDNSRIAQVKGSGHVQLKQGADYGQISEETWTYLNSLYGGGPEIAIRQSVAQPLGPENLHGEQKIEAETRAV
UniProt Q70CQ1, sequence (whole entry, looked up): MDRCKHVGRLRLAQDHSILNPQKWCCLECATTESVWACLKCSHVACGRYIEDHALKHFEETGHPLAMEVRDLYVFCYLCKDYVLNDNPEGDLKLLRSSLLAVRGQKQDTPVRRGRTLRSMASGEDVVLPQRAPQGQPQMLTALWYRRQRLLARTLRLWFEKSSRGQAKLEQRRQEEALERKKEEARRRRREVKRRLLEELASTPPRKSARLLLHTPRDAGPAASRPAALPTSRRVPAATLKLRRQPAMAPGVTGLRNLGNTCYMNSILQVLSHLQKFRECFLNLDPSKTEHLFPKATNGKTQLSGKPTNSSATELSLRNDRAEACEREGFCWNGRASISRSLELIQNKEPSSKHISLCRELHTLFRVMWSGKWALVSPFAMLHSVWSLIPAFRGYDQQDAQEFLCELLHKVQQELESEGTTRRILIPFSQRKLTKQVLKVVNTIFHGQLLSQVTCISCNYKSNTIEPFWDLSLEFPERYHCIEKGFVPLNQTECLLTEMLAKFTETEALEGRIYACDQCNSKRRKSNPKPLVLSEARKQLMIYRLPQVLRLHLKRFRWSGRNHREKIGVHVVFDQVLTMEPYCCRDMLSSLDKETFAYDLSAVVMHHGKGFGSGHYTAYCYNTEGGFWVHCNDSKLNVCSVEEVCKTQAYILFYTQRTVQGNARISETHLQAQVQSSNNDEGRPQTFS

SMILES	tested on	assay	test system	conditions	scale	endpoint	result
CN(CCC(=O)O)C(=O)c1ccc2c(c1)CC[C@@H]1[C@@H]2CC[C@]2(C)C(c3cncc(F)c3)=CC[C@@H]12	–	–	premenopausal women, endometriosis pain, serum	60 mg twice daily, visit 5, mean	reference: baseline	direct bilirubin change	0.246 mg/dL
FC(F)(F)c1ccc(CNc2ccc(Cc3c[nH]c4ncc(Cl)cc34)cn2)cn1	–	item: aspartate aminotransferase increased	patients with advanced solid tumours	oral, dose not given, grade 1 and 2, possibly related to drug	–	adverse event incidence	28%
Fc1ccc(-c2nc(-c3ccc4ccccc4c3F)[nH]c2-c2ccncc2)cc1	–	PAMPA	–	16 h	–	membrane retention	87.5 ± 1.8%
N#Cc1ccc2c(c1)[C@H]1CCCN(C(=O)c3ccc4[nH]cnc4c3)[C@H]1C2	–	–	human	40 mg, day 15	reference: baseline	cortisol level change	-39 nmol/L
O=C(O)CCC(=O)Nc1ccccc1	Ubiquitin carboxyl-terminal hydrolase 20, ZnF-UBD domain (USP20, Homo sapiens, UniProt Q9Y2K6)	–	–	–	–	Kd	817 µM
CC(C)(C(=O)N1CCOc2c(C#N)cncc2C1)C(F)F	–	item: Polyuria	human	oral, 10 mg, CSF pharmacokinetic cohort	–	subjects with adverse event	0%
CCN1CCN(Cc2ccc(NC(=O)c3ccc(C)c(NC(=O)c4cncc(-c5cccs5)c4)c3)cc2C(F)(F)F)CC1	–	LC-MS/MS	C57BL/6 mouse, plasma	intraperitoneal, 30 mg/kg single dose, 0.5 h	–	plasma concentration	0.649 µg/mL and 0.822 µg/mL and 0.676 µg/mL
CN1CCCC1CCNS(=O)(=O)c1ccc2c(c1)CN(CC1CCCCC1)CC2 (stereo not drawn)	–	–	wild-type mouse, plasma	oral in diet, 0.02% in diet, 6 months	–	Cmin	17.1 ng/mL
CNCc1ccc(-c2[nH]c3cc(F)cc4c3c2CCNC4=O)cc1	–	item: Dysgeusia	human patients	oral, 600 mg twice daily, grade 3	–	patients with adverse event	0%
COC(=O)c1ccc([C@@H]2COC[C@H](c3ccc(NC(C)=O)cc3)N2)cc1	–	shake-flask, 1-octanol/buffer	–	pH 7.4	–	logD	> 4.7
CN1CCN(C(=O)c2ccc3cc(CCNc4ccnc5ccc(C#N)cc45)ccc3c2)CC1	–	–	human hepatocytes, female	2 µM, 37 °C	–	CLint	6.39 µL/min/10⁶ cells
N#Cc1c2n(c3c(=O)n(CC(=O)O)cnc13)CCCC2	Ubiquitin carboxyl-terminal hydrolase 49, ZnF-UBD domain (USP49, Homo sapiens, UniProt Q70CQ1)	–	–	–	–	Kd	> 1000 µM
CCc1cc(C(=O)NC)c2nccc(N3CCc4c(cc(Cn5ccnc5)cc4-c4cn(C)nc4C(F)(F)F)C3=O)c2c1	–	–	Sprague Dawley rats	oral, 100 mg/kg once daily, 7 days	–	serum HDL level	1.3 ± 0.3 mmol/L
C[C@@H]1CCO[C@H]2Cn3cc(C(=O)NCc4ccc(F)cc4F)c(=O)c(O[C@@H]4O[C@H](C(=O)O)[C@@H](O)[C@H](O)[C@H]4O)c3C(=O)N12	–	–	human, normal renal function, plasma	steady state	–	Ctau	0.2 µg/mL
CC[C@H](C)[C@H](NC(=O)[C@H](Cc1ccccc1)NC(=O)[C@H](CCC(=O)O)NC(=O)[C@H](CCCCNC(=O)COCCOCCNC(=O)COCCOCCNC(=O)CC[C@H](NC(=O)CCCCCCCCCCCCCCCCC(=O)O)C(=O)O)NC(=O)[C@H](C)NC(=O)[C@H](C)NC(=O)[C@H](CCC(N)=O)NC(=O)CNC(=O)[C@H](CCC(=O)O)NC(=O)[C@H](CC(C)C)NC(=O)[C@H](Cc1ccc(O)cc1)NC(=O)[C@H](CO)NC(=O)[C@H](CO)NC(=O)[C@@H](NC(=O)[C@H](CC(=O)O)NC(=O)[C@H](CO)NC(=O)[C@@H](NC(=O)[C@H](Cc1ccccc1)NC(=O)[C@@H](NC(=O)CNC(=O)[C@H](CCC(=O)O)NC(=O)C(C)(C)NC(=O)[C@@H](N)Cc1cnc[nH]1)[C@@H](C)O)[C@@H](C)O)C(C)C)C(=O)N[C@@H](C)C(=O)N[C@@H](Cc1c[nH]c2ccccc12)C(=O)N[C@@H](CC(C)C)C(=O)N[C@H](C(=O)N[C@@H](CCCNC(=N)N)C(=O)NCC(=O)N[C@@H](CCCNC(=N)N)C(=O)NCC(=O)O)C(C)C	–	–	Caucasian subjects	0.5 mg	–	subjects with moderate AEs	25%
OC[C@H]1O[C@@H](c2ccc(Cl)c(Cc3ccc(O[C@H]4CCOC4)cc3)c2)[C@H](O)[C@@H](O)[C@@H]1O	–	–	Japanese type 1 diabetes patients, blood	25 mg, day 28	reference: baseline	change in Sodium	1 mEq/L
CN(C(=O)C(C)(C)c1cc(C(F)(F)F)cc(C(F)(F)F)c1)c1cnc(N2C[C@H]3COCCN3C[C@H]2CO)cc1-c1ccc(F)cc1[14CH3]	–	–	healthy men, urine and feces	oral, 120 mg, 288 h, added: [14C]-label	reference: dose	cumulative radioactivity excreted	~88.6%
CNC(=O)c1ccc(-c2cnc3ncc(Cc4ccc5ncccc5c4)n3n2)cc1F	–	–	Japanese patients	oral, 400 mg twice daily, grade 3/4	–	Dysphonia patients	0%

A few entries again:
SMILES	tested on	assay	test system	conditions	scale	endpoint	result
CN1CCCC1CCNS(=O)(=O)c1ccc2c(c1)CN(CC1CCCCC1)CC2 (stereo not drawn)	–	–	wild-type mouse, plasma	oral in diet, 0.02% in diet, 6 months	–	Cmin	17.1 ng/mL
CC(C)(C(=O)N1CCOc2c(C#N)cncc2C1)C(F)F	–	item: Polyuria	human	oral, 10 mg, CSF pharmacokinetic cohort	–	subjects with adverse event	0%
